# Measured values pooled from the literature.
# Protocols differ between the studies behind these lines.
Compound,cell line,test,setting,scale,endpoint,result
CO[C@@H]1[C@@H](OC(N)=O)[C@@H](O)[C@H](Oc2ccc3c(O)c(NC(=O)c4ccc(O)c(CC=C(C)C)c4)c(=O)oc3c2C)OC1(C)C,DLD-1 parental,,200 µM,baseline: untreated,colony survival,0.12%
Cc1ncsc1-c1ccc(C(C)NC(=O)C2CC(O)CN2C(=O)C(NC(=O)CCCCCCCCCCN2CCCC(Nc3ncc(Cl)c(Nc4ccccc4S(=O)(=O)C(C)C)n3)C2)C(C)(C)C)cc1 (centres unmarked),22Rv1,"RNA-seq, item: UFSP1 mRNA",concentration not given,baseline: DMSO,log2 fold change,-2.27
COc1ccccc1-c1ccncc1C(=O)Nc1nnc(OCc2ccc(Cl)cc2)s1,PEO1 BRCA2-mutant ovarian cancer,,"0.5 µM, added: olaparib 1 µM",,colony survival,0%
CC(C)c1ccc(N(C)c2ccc3c(c2)OCC[C@H]3CNc2cnccc2C(=O)O)cc1,MDA-MB-415,"cell growth or viability, ATP luminescence",7 days,,IC50,≥ 10000 nM
CN1CCCNC(=O)c2cccc(c2)C(=O)NCCCN(C)CCCNc2cccc3c2C(=O)c2cccc(c2C3=O)NCCC1,SAS,"RNA-Seq, item: HSPA5 mRNA","1 µM, 6 h",baseline: untreated cells,log2 fold change,-0.833
CCN(CC)CC(=O)Nc1cccc(-n2cc(-c3ccc4ccc(-c5cn(-c6cccc(NC(=O)CN(CC)CC)c6)nn5)cc4c3)nn2)c1,RCC4,"PCR angiogenesis array, item: IL8","5 x IC50, 6 h, normoxia",baseline: untreated,fold regulation,-3.31
CNS(=O)(=O)Nc1nccc(Cc2c(C)c3ccc(Oc4ncccc4F)cc3oc2=O)c1F,BDCM,"cell viability, CellTiter-Glo",7 days,,IC50,89.7 nM
Cn1ncc2cc(-c3cncc(Cl)c3N3CCC4(CCNC4=O)CC3)ccc21,LS174T,"gene expression, microarray, item: CXCR4 mRNA","concentration not given, 4 h",baseline: untreated cells,log2 fold change,1.23

# For quick reference, copied from above:
Compound,cell line,test,setting,scale,endpoint,result
CN1CCCNC(=O)c2cccc(c2)C(=O)NCCCN(C)CCCNc2cccc3c2C(=O)c2cccc(c2C3=O)NCCC1,SAS,"RNA-Seq, item: HSPA5 mRNA","1 µM, 6 h",baseline: untreated cells,log2 fold change,-0.833
